Results from different studies.
Lines come from different studies, so protocols differ. ± gives the spread as reported. Where no end group is shown, it is not given here. [ ]: non-standard residue; d: D form.
abrB full length assumed: abrB full length assumed (Bacillus licheniformis, UniProt Q65PI4)
T1: NR1I2/RXRA (Homo sapiens); chain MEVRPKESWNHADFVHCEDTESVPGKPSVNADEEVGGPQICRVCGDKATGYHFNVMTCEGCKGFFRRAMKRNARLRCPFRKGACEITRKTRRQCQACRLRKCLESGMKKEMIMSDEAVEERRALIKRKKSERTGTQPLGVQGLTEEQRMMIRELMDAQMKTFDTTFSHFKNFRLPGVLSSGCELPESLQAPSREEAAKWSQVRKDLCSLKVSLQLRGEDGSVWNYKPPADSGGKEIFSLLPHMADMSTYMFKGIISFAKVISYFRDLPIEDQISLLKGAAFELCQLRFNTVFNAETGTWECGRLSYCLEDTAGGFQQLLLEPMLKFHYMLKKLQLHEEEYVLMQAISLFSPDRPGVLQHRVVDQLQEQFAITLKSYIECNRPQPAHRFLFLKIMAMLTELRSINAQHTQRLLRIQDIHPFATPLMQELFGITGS; chain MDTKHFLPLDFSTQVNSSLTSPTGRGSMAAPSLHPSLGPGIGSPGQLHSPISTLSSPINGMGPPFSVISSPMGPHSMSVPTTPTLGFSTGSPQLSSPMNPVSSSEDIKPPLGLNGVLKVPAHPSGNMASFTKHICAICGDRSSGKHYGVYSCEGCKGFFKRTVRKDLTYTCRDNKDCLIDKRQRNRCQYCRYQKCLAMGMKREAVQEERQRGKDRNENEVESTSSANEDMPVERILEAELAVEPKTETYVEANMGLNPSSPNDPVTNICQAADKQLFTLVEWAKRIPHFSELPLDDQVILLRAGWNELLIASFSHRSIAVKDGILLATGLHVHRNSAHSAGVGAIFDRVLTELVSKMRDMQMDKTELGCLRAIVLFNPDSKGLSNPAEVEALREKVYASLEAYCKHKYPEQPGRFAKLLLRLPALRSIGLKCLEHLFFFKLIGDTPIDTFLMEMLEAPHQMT
B1: UGT1A9 (Homo sapiens, UniProt O60656); chain GKLLVVPMDGSHWFTMRSVVEKLILRGHEVVVVMPEVSWQLGRSLNCTVKTYSTSYTLEDLDREFKAFAHAQWKAQVRSIYSLLMGSYNDIFDLFFSNCRSLFKDKKLVEYLKESSFDAVFLDPFDNCGLIVAKYFSLPSVVFARGILCHYLEEGAQCPAPLSYVPRILLGFSDAMTFKERVRNHIMHLEEHLLCHRFFKNALEIASEILQTPVTEYDLYSHTSIWLLRTDFVLDYPKPVMPNMIFIGGINCHQGKPLPMEFEAYINASGEHGIVVFSLGSMVSEIPEKKAMAIADALGKIPQTVLWRYTGTRPSNLANNTILVKWLPQNDLLGHPMTRAFITHAGSHGVYESICNGVPMVMMPLFGDQMDNAKRMETKGAGVTLNVLEMTSEDLENALKAVINDKSYKENIMRLSSLHKDRPVEPLDLAVFWVEFVMRHKGAPHLRPAAHDLTWYQYHSLDVIGFLLAVVLTVAFITFKCCAYGYRKCLGKKGRVKKAHKSKTH

Substance	target or system	assay	test system	setting	how to read	quantity	result
CATCGGTTTTGCCATTATTATGTTTAATCTTATTTTTGTAAACCTTGTCATCGCCGGGCTTCACTCTTATGCATGATCCGTGCGGTGCAGGAAGGTCCGGGCTTTTCACCGGGCCTTCCGCAGCTTTTTGTTTTAAATTGAGGAAAGGCATTCTTGGCTTGGCTTACAATCGCTTTTCTAATAAAATGAATGTAAGAAGATTCAAATCAGGAGGTTTACGATGGAACAGACGAAAGAGAC (dsDNA)	abrB full length assumed	EMSA	double-stranded DNA, one strand shown	–	–	binding	binds
AACTGCAGGAAATTCTACTGTAAAGTATGGTTCCCAATTTATTATATTCTATTATCATGAAACTATCTCTTAAGTTCGGAAATCAAACCTCATATTAACGCCAATCAAAACTAATTACTAAATAGTCTATGAAATTTATGAATAGTTTTTAATCAATGCCTTCAACAATAGAAAGGGATCCCG (dsDNA)	lysM 1-142 (Sulfolobus solfataricus, UniProt Q980W9)	Cu-OP in-gel footprinting	double-stranded DNA, one strand shown	–	–	binding	binds
TCTTGAGCATTTGGGCTGGAATGAGGCGGCCGACCTTGTCATTAAATCAATGGAGAAAACAATCGCATCCAAAGTCGTCACATACGATTTCGCTCGTTTGATGGACGGCGCGACTGAAGTCAAATGCTCTGAATTCGGTGATGAGCTTATCAAAAACATGTCTTAAACGGCTGTTTTGGGGTAAAACAAACAACAATTAAAAGGGGTAGAAAAAATGGGAAAGAAGCGAAATAAAGTATCTGTCATCGGAGCGGGTTTTACAGG (dsDNA)	abrB full length assumed	EMSA	double-stranded DNA, one strand shown	–	–	binding	binds
TCAGCTGAATGAACTTGCTGACCCTCTGCT (dsDNA)	T1, NR1I2/RXRA (Homo sapiens)	fluorescence anisotropy competition	double-stranded DNA, one strand shown	with: DR3 FAM	–	Ki	88.3 ± 4.2 nM
UUUCAGCUCCGGUCACGCUC (ssRNA)	SRSF2 1-115 (Homo sapiens, UniProt Q01130)	NanoBRET competition	–	apparent, not purified	–	Ki	113 nM
PRL (Homo sapiens, UniProt P01236)	–	NMR, measured: His173	–	35 °C, numbering of the source	–	pKa	4.99
Insulin human	–	ELISA	rat, ventral cortex	intranasal, 20 µg per nostril, 60 min	–	concentration	18.4 ± 8 pg/mg tissue
[dI]VIA (D-Ile1)	PC-12	protection from Aβ1–42 toxicity, MTT	–	concentration not given, 6 h, Aβ to peptide ratio 1:1, with: Aβ1–42 2 µM	baseline: untreated cells	cell viability	70%
AACTTGCTGACCCTCTGCTTTC (dsDNA)	T1, NR1I2/RXRA (Homo sapiens)	fluorescence anisotropy competition	double-stranded DNA, one strand shown	with: DR3 FAM	–	Ki	144 ± 6 nM
UUUCAGCUCCGGUCACGCUC (ssRNA; m5C at position 10)	SRSF2 full length assumed (Homo sapiens, UniProt Q01130)	NanoBRET competition	HEK293	apparent, permeabilized cells, not purified	–	Ki	84.4 nM
VV[dP]A (D-Pro3)	PC-12	protection from Aβ1–42 toxicity, MTT	–	concentration not given, 6 h, Aβ to peptide ratio 1:1, with: Aβ1–42 2 µM	baseline: untreated cells	cell viability	78.1%
GAGUUGAGUUGAGUUGAGUUGAGUUGAGUUGAGUUGAGUUGAGUUGAGUUGAGUU (ssRNA; single strand)	mtrB full length assumed T30C (Bacillus subtilis, UniProt P19466)	filter binding	–	with: L-tryptophan 1 mM	–	Kd	8 ± 0.1 nM
GGGAUCGUCAGGUGGGAUAAUCCUUACCUGUUCCUCCUCCGGAGGGCAGAUUAGAACAUGAUGAUUGGAGAUGCAUGAAACGUGAUUAACGUCUCUGCGUAAUCAGGACUUGCAACACCCUGAUUGCUCCUGUCUGAUU (structured RNA)	SNU13 1-128 (Homo sapiens, UniProt P55769)	competition	–	–	–	binding	binds
TCAGCTGAATGAACTTGCTGACCCTCT (dsDNA)	T1, NR1I2/RXRA (Homo sapiens)	fluorescence anisotropy competition	double-stranded DNA, one strand shown	with: DR3 FAM	–	Ki	82.8 ± 3.6 nM
B1 (UGT1A9)	COc1c(O)cc2oc(-c3ccc(O)c(O)c3)cc(=O)c2c1O	steady-state kinetics	–	pH 7.4, 37 °C	–	Vmax/Km	1650 µL/min/mg

A few entries again:
Substance	target or system	assay	test system	setting	how to read	quantity	result
UUUCAGCUCCGGUCACGCUC (ssRNA; m5C at position 10)	SRSF2 full length assumed (Homo sapiens, UniProt Q01130)	NanoBRET competition	HEK293	apparent, permeabilized cells, not purified	–	Ki	84.4 nM
VV[dP]A (D-Pro3)	PC-12	protection from Aβ1–42 toxicity, MTT	–	concentration not given, 6 h, Aβ to peptide ratio 1:1, with: Aβ1–42 2 µM	baseline: untreated cells	cell viability	78.1%
